Assay results from different studies.
Every numbered part comes from another study and shows a few of its results, in no order. Changes are numbered by the printed parent chain.

Set 1
Target: Phosphate system positive regulatory protein PHO4, full length, GST-tagged (PHO4, Saccharomyces cerevisiae, UniProt P07270, residues 1-312)
Technique: competition protein-binding microarray
Molecule type: double-stranded DNA, one strand shown
Medium: in vitro
Concentration: 2 µM
Notes: whole 60-bp probe, lowest competitor level
Together with: Cbf1 competitor, 0.05 µM
Reading: higher = stronger binding
Measurement: fluorescence intensity
Residues (chain): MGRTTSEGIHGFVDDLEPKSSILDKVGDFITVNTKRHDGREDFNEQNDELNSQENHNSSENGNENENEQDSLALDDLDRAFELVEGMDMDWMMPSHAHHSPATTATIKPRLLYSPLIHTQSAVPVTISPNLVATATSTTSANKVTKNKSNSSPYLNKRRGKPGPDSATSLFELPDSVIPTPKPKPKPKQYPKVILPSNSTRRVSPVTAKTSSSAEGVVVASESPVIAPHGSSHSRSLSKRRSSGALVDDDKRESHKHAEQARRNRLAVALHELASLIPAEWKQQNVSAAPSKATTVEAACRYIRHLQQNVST
CGGGGTTAAGTTTGTCACATTACTTGCTTGCAGCAGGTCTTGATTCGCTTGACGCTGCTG: 3810 a.u.
CCGGACTTCCATCGGCACGTGGACCTAAAATTCTTTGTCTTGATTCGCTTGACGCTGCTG: 18700 a.u.
GCACTAGTAGAATCGCACGTGTTGGGTTCCCCAAGTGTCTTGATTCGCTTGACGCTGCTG: 18100 a.u.
TGCGCAACAACTTGCAATGTGGGTGTATGTCTAGAAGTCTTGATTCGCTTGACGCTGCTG: 6370 a.u.
GAAGAGGAGTCTTTGCACGTGTTTCAGTATGCTAATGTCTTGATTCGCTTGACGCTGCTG: 20600 a.u.
CGAAGAGGTTCCTATCACCTGCATTCGGTGTTTCTAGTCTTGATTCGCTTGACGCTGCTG: 4120 a.u.
GTTACCCGGTCGAGTCACGTGCGGATGCGGAGGGCAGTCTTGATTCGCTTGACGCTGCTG: 18100 a.u.
TCCTTTTTTGCGAGTCACGTTCCTGCAGCGCGTTTCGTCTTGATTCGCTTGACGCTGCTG: 12400 a.u.
CGGTACCCCAACCGTCACAATAAGTACTTGCGCCATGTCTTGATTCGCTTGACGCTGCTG: 3610 a.u.
TGGTATCGCGAAAGAAACGTGTAGGCAATTAGGACTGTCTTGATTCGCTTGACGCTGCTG: 12800 a.u.
GCTTAAGGGCTCGACCACGTGCGATTCGCTGCTCAAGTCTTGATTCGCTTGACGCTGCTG: 15300 a.u.
TAAGCAAATGAACCGCACATGTAGGCCGCAAATCTTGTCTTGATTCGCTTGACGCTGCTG: 7970 a.u.
AAGTGTATGGGTCCACGCGTGTTTTGTGCAGTGTATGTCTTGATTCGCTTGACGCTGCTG: 10600 a.u.
GTCTTGTCTCATTGGATAGTGGGTGTCCCCACTTCAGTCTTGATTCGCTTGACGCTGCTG: 5220 a.u.
TCCGAAATGCGATAAGTCGTGATGGGGTTACCTCGAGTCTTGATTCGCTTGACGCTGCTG: 4070 a.u.
TACAGCATATTTCGTCACGTGTGTTCGTCGAGCTGGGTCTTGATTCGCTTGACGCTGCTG: 13900 a.u.
TATGCGCGGATGTGGCACATGCTGTTGAGATCTCAAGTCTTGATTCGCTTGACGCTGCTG: 11600 a.u.
GAAAGGAAATGCTGTCATGTGAGTTAGGTGTAGAGCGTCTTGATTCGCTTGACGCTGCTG: 6280 a.u.
ATTCCTCGGAGGTAACATGTGCTGCAAAGGCCATGAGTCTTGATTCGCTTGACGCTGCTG: 11200 a.u.
CGTCCTAGTGATTGGCTGGTGGGTGCCATGAGGAAGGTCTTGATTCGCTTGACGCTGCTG: 6760 a.u.
AAATTACTAAGTTGTCACAAGACTTACCCCGTATGAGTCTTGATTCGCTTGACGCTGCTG: 3490 a.u.
CTTCTCGCGGTGGTGCCCGTGGTTACTCCAGAGGTGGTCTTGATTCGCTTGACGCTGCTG: 9010 a.u.
GAATGGAGTAAAGGCAGCGTGGGTACCCTGTGGAAAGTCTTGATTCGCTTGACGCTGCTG: 8120 a.u.
CTTCTGTAAATTTGCCACGTGGGTGGACGCGCCCCGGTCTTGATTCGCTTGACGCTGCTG: 18200 a.u.
CGGACGCTCAAACGATCCGTGACTCGGCGCCACAGGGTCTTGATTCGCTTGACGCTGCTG: 3770 a.u.

Set 2
Target: CCNB2, cyclin fold, Cln2 fusion (human)
Technique: yeast growth competition, sequencing
Medium: yeast
Notes: strong parent motif
Relative to: not given
Reading: higher = stronger binding
Measurement: normalised enrichment score
Parent: MICAL3 docking peptide (human); LQLRRQLSFSEDS
E11K: 1.38
F9G: -0.121
L7A: -0.198
E11V: 1.55
R4P: 0.36
E11F: 1.52
Q2E: 3.17
E11Q: 1.96
F9Y: 2.32
S8I: 1.5
F9A: 0.124
R4M: 0.71
R4E: 0.739
Q6K: 4.51
D12A: 3.4
S8E: 0.878
Q2S: 3.82
S8K: 1.1
L7Q: 0.043
R5Q: 0.414
L3A: 0.826
Q6T: 3.04
R5T: 0.555
R5A: 0.0621
D12C: 3.6

Set 3
Target: Interferon regulatory factor 3, full length, phosphomimetic (IRF3, Homo sapiens, UniProt Q14653, residues 1-427, S386D/S396D/S398D/S402D/T404D/S405D)
Technique: protein-binding microarray
Molecule type: double-stranded DNA, one strand shown
Medium: in vitro
Concentration: 2540 nM top
Notes: 60-bp whole probe
Together with: salmon DNA 0.4 mg/ml
Relative to: random background probes
Reading: higher = stronger binding
Measurement: fitted relative affinity
Shared flanks, not repeated: GCCTAGCAC … GTCTTGATTCGCTTGACGCTGCTG
Target sequence (chain): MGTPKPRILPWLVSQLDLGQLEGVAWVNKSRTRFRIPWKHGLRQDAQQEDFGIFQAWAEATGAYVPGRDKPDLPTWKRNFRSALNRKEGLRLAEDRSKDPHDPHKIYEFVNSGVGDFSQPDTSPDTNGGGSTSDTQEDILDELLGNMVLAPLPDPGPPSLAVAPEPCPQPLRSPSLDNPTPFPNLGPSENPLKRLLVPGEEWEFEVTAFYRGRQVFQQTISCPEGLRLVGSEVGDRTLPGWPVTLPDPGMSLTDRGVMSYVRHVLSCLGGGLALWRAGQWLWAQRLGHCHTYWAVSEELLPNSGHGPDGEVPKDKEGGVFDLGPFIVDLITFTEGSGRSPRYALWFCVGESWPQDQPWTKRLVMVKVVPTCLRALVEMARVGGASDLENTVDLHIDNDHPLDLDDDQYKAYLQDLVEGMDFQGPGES
TTAGAGCTCAGTATCGATTAGTGCTAG: 0.666 z-score
TATTTTTTTCTAATTGAAATGTGCTAG: 1.52 z-score
TTAGGTTTCGGTCTCGGTTGGTGCTAG: 8.47 z-score
TTAGGAATGCTTTTCCTTTAGTGCTAG: 1.25 z-score
TTAGGTCTCCTTCTGCTTTAGTGCTAG: 1.88 z-score
GACGGTTTCGGAATCGGGACGTGCTAG: 7.75 z-score
GACGGACTGGACTATCGGCACGTGCTA: -0.548 z-score
TTAGATTTCAGTATCTATTAGTGCTAG: 2.07 z-score
TTAGATTTCAGACTGGATGAGTGCTAG: 0.619 z-score
ACTTCCCTCGGGTTGCGGAGCGTGCTA: 0.537 z-score
TCACACCTCTAGACTCTAACTGTGCTA: 0.0276 z-score
TTAGATATTAAACTGATAGGGTGCTAG: -0.158 z-score
CAGAGCCTCAGTCCTCACACAGTGCTA: -0.429 z-score
GACGGACTGGGTTTCGCGACGTGCTAG: -0.124 z-score
CTAGATTTCAGTATCGATTAGTGCTAG: 2.52 z-score
TCATTTTACTTTCTATCACTGTGCTAG: 3.88 z-score
CTAGGTATCGGTCTCGGTTAGTGCTAG: 4.69 z-score
TTAGATTTCGGGACTGGAATAGTGCTA: 1.64 z-score
GACGGCATCGGACTGGGGACGTGCTAG: -0.993 z-score

Set 4
Target: RNA binding protein fox-1 homolog 2, RRM domain, GST-SBP tag (RBFOX2, Homo sapiens, UniProt O43251-10, residues 100-194)
Technique: RNA Bind-n-Seq
Molecule type: RNA
Medium: in vitro
Concentration: 365 nM
Notes: natural RNA segment, single round, ends assumed
Relative to: no-protein control
Reading: higher = stronger binding
Measurement: RBNS enrichment (R)
Target sequence (chain): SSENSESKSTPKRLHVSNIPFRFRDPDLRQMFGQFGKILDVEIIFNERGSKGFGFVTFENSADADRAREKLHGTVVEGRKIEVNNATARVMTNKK
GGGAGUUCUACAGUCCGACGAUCGUUCGUUUCCAUCAUGUCUGUAUACUCCUGUCACCUAGAACGUGCAUCCUUGUAAUACCUGAUUGAUCACACAGUGUUAGUGCUGGUCAGAGAGACCUCAUCCUGCUCUUUGGAAUUCUCGGGUGCCAA: 0.427
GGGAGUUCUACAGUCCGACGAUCCAUGUUUUAUGGUACUCAGCCAUCCAAAAGUGAAAGACCUAGCAUUUGAUUCUGUGCAGGACACAAAUCUCACAGGAACUAUAGCACUUUGGAAAAGCAUCAAAGUAGAAUGGAAUUCUCGGGUGCCAA: 0.612
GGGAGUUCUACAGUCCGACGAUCUGCUGUGUGGGUACUCCAAGUGCUGACUUAGGAUAUUAAUGUGCUGCAACACAUUUGUCACCAGGCUUUGAAGGUGACAGCCUGACAAUGUGUUGGAGACACUUCUGAAGUGGAAUUCUCGGGUGCCAA: 4.18
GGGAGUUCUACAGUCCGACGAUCGCUUGAGUCAUGCCUUACCUGCUAUAAGACAGAGUUUCCGCAUAGGUCAGUUCUAUGUGGUGUGGCAGUUACAUAGGAUGAGUACAUUUUCAGAGCAGCUAGAUGUCUGCUGGAAUUCUCGGGUGCCAA: 0.731
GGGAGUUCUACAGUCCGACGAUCUGGCUCCUUUGGACCUACCCCUGUCCUUGCUGACUUGUGUUGCAUUGUAUUCCAAACGUGUUUACAGGUUCUCUUAAGCAAUGUUGUAUUUGCAGGCUUUUCUGAAUACCUGGAAUUCUCGGGUGCCAA: 0.386
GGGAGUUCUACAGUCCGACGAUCUCCUCGAGUGUCCAGUCUCAGGUGAUCUUGACCUGAUCGGAGUCGCCAGGCAGUAUAUCCAGUUAGAACUUCCGGCUUUUGCAUUAGCUUGUCUGAUGCUCAUGCCCCACUGGAAUUCUCGGGUGCCAA: 0.264
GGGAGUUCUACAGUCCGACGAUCUUGUUUUGCUUAUUUUUAAAUUAACUGUUCAGGCUUUGGAUACUGCAGGCUUUAGAGGGAGAACCCAAAUUUUCAAUUAUGUUGGCUUUUUAUAAAGCUUGAGUUAUGUAUGGAAUUCUCGGGUGCCAA: 0.575
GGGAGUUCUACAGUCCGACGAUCAAAAUAUAUAUAUACACACAAGCACUAUUUUCUUAUGUCAUUUAUGACAUUUUUUAUCUGUAUACUUUUUUGAUGUGAUUGUUUUUUAACAUGCUAAAAGUAAUAAGUAUUGGAAUUCUCGGGUGCCAA: 1.68
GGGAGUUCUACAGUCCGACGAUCUUGCAACCUCUUUUCGUGAUGGGCAGCCUGCUGGUCAGCACUCCAGUAGCGAGAGACGGCACCCAGAAUCAGAUCCCAGCUUCGGCAUUUGAUCAGACCAAACAGUGCUGUGGAAUUCUCGGGUGCCAA: 1.56

A few entries again (set 1):
TACAGCATATTTCGTCACGTGTGTTCGTCGAGCTGGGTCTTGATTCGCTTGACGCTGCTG: 13900 a.u.
TATGCGCGGATGTGGCACATGCTGTTGAGATCTCAAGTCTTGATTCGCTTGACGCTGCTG: 11600 a.u.
GAAAGGAAATGCTGTCATGTGAGTTAGGTGTAGAGCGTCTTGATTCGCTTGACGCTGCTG: 6280 a.u.
ATTCCTCGGAGGTAACATGTGCTGCAAAGGCCATGAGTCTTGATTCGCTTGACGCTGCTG: 11200 a.u.
